Measurements from different studies.
Each numbered part is a random draw from the data of one study; scales do not carry over between parts. Substitutions count along the parent as printed.

Set 1 — technique: DHFR PCA, deep sequencing; sample: yeast; together with: (+)-ABA 0.032 µM; reference: wild-type fitted maximum; reading: higher = stronger binding; measurement: relative binding score
Target: ABI1, truncated, D143A, DHFR fusion (Arabidopsis thaliana)
Notes: methotrexate growth selection, single substitutions
Parent: PYL1, truncated, DHFR fusion (Arabidopsis thaliana); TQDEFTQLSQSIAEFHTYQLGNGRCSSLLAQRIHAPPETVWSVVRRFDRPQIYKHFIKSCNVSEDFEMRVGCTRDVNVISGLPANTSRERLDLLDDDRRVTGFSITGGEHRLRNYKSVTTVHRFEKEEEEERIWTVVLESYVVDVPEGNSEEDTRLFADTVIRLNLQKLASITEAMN
E152R: 0.835%
G107M: 3.45%
A158L: 46.1%
T86V: 38.2%

Set 2 — technique: competition protein-binding microarray; molecule type: double-stranded DNA, one strand shown; sample: in vitro; tested at: 2 µM; together with: Cbf1 competitor, 0.05 µM; reading: higher = stronger binding; measurement: fluorescence intensity; constant ends, left off below: … GTCTTGATTCGCTTGACGCTGCTG
Target: Phosphate system positive regulatory protein PHO4, full length, GST-tagged (PHO4, Saccharomyces cerevisiae, UniProt P07270, residues 1-312)
Notes: whole 60-bp probe, lowest competitor level
Construct (chain): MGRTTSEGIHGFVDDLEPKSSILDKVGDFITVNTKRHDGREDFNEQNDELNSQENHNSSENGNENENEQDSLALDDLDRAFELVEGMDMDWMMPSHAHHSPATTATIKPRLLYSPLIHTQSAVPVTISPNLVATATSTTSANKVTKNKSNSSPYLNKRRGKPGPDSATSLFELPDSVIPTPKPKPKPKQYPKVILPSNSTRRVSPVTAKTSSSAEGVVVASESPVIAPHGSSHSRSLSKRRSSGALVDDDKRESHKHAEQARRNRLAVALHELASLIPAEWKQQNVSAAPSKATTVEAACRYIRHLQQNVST
CTCGATCTACCGTTCCACGTGACTCGTCCAAGGATT: 14100 a.u.
TGTAACAAGGAACAACGCGTGCTAACAAGCGGTAAT: 11900 a.u.
GTCTTGTCTCATTTTCACGTGTCGTTCCCCACTTCA: 12600 a.u.
TTTCCACAAACTCACCACGTTGAGAGTGTGTGTATA: 12200 a.u.
TTTTTTTGCTACCAACACGTGCCAGTGGTTTAGGTA: 16900 a.u.
CTAACGAAGGTTTGTCACCTAACTTACAAGCCAAGT: 2910 a.u.
GATTGGGATCCTTGTCATGATGATGCCATAGCCATT: 3660 a.u.

Set 3 — technique: RNA Bind-n-Seq; molecule type: RNA; sample: in vitro; tested at: not given; reference: input RNA pool; reading: higher = stronger binding; measurement: bound/input enrichment
Target: RING finger protein unkempt homolog, zinc fingers 1-6, GST-SBP tag (UNK, Homo sapiens, UniProt Q9C0B0, residues 30-357)
Notes: RNA with constant flanks, human-mouse chimeric sites, ends assumed
Constant ends, left off below: GGGAGUUCUACAGUCCGACGAUC … CAACAGAGGAUUGAGCAUCA
Construct (chain): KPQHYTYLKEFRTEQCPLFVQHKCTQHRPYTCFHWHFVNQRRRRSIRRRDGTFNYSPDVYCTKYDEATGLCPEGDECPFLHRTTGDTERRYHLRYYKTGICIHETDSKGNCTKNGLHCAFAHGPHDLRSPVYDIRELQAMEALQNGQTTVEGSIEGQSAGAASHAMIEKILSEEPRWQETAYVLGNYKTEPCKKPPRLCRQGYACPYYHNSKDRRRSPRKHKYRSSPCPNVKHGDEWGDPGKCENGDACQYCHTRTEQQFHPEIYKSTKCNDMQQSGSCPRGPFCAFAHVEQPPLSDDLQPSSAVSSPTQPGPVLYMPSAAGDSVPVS
CUGUGACUGAUGGCAGCUACCUGAGUGGCAGCUGAAGUUGACUCCCUCUCCUUGCCUGAACCCCCCCCCACUGCCCCCCCAUCCCCCAGUGUCGGCUGAGAUGUUGCCUCUGCACGGUUC: 1.32 ratio
CUGAGGAUACCACUGAAGAGACCUUAAAAGAAUCAUUUUGACGGCUCGUUCGUGCAAGAAUAGUCACUGAUCGGGAAACUGGUUCUUCCAAAGGGUUUGGUUUUGUAAGACUUCAACGUG: 0.181 ratio
GUGCCCUUCUCGCUGCUCCUGCGGGGCAGCUGGGAACCAUUCCGGGACUGGUACCCUGCACACAGCCGCCUCUUCGAUCAAGCUUUCGGGGUGCCCCGGUUGCCCGAUGAGUGGUCGCAG: 0.0597 ratio
CUGGGUAUCAUCUCUCGUGCUGUUAGACACCUGUUCAAGAGUAUUGAAGAAAAAAAAACCUCAGCGAUUAAAAACGGGCUGCCCCCUCCUGAAUUCAAAGUGAAUGCCCAGUUCCUAGAG: 0.617 ratio
GAAUCCUACUCAGGCGGAUUUUGCAACCUGAAUGCAACAGCAGCAGCAUCUUAGUCACAGUAGGGUAGCUUUAGGGCUCUGUGGCCAGGGUUUUAUUCACAUGCAGGUUUGGAAAAUGUA: 0.79 ratio
GGAAGUACAUUAAUGGAGAUUGAUGGUGACAAAGGCAAGCAGGGCGGGCCCACCUACUACAUAGACACCAAUGCCCUCCGCGUGCCCAGGGAGAACAUGGAGGCCAUUUCACCUCUAAAG: 0.252 ratio
UCAGGAACCCAGACAAACAUGAAUGUAAAUGAAGUCAUUAGCAACAGAGCAAUUGAAAUGUUAGGAGGUGAACUUGGCAGCAAGAAGCCUGUGCACCCCAACGAUCAUGUUAAUAAAAGC: 0.328 ratio

Mixed results
PhoQ, residues 284 288 289 292 302 303 QWGLFV
fold induction (PhoP, residues 12 14 15 18 19 LHHSG (Escherichia coli, UniProt P23836); Sort-seq, refers to: YFP reporter; E. coli; PhoQ-PhoP variant library, together with: 10 µM Mg2+; reference: high Mg2+ state, higher = stronger signaling): 5.75

Some of these lines once more (set 2):
GTCTTGTCTCATTTTCACGTGTCGTTCCCCACTTCA: 12600 a.u.
TGTAACAAGGAACAACGCGTGCTAACAAGCGGTAAT: 11900 a.u.
CTAACGAAGGTTTGTCACCTAACTTACAAGCCAAGT: 2910 a.u.
